Assay results from different studies.
Protocols differ between the studies behind these lines. ± gives the spread as reported.

Cn1ncnc1[C@H]1c2n[nH]c(=O)c3cc(F)cc(c23)N[C@@H]1c1ccc(F)cc1
Cmax (human patients, plasma; oral, 600 µg/m2 twice daily day 1, day 5, dose level DL4, median, added: temozolomide 30 mg/m2 daily days 2-6): 17.8 ng/mL

CC(C)[C@@H]1CC[C@@H](C)C[C@H]1OC(=O)O[C@@H](C)OC(=O)[C@H]1[C@@H]2C[C@H](F)[C@@](N)(C(=O)O)[C@@H]21
Cmax (human, plasma; oral, 10 mg, fed, single dose): 8.06 ng/mL

CC(C)(C(=O)N1CCOc2c(C#N)cncc2C1)C(F)F
Cmax (humans, both sexes, fasted, plasma; oral, 20 mg single dose, geometric mean): 241 ng/mL

Cc1ccc([C@@H]2O[C@H](CO)[C@@H](O)[C@H](O)[C@H]2O)cc1Cc1ccc(-c2ccc(F)cc2)s1
Cmax (human, maintenance hemodialysis patients; oral, 100 mg once daily, steady state, mean): 911 ng/mL

C[C@H](Oc1ccc(Br)cc1-c1ccon1)C(=O)O
Cmax (LC-MS/MS, non-compartmental; human, plasma; 200 mg once daily, day 10, multiple ascending dose, mean): 8920 ng/mL

COc1ccc([C@@H](O)c2cc(-c3ncnc4cc(N5CCOCC5)ccc34)c(F)cc2Cl)nn1
Cmax (healthy human volunteers, plasma; oral, 100 mg single dose, tablet, fasted, geometric mean): 265 ng/mL

N[C@@H]1c2cccnc2[C@H](OC(=O)N2CCC(n3c(=O)[nH]c4ncccc43)CC2)CC[C@H]1c1cccc(F)c1F
Cmax (human, plasma; oral, 75 mg, single dose alone, mean): 948 ng/mL

N[C@@H](CC(=O)N1CCn2c(nnc2C(F)(F)F)C1)Cc1cc(F)c(F)cc1F
Cmax (male human, plasma; oral, 100 mg single dose): 464 ± 124 ng/mL

Cc1noc(C)c1-c1cc(C(O)(c2ccccn2)c2ccccn2)c2nc(C3CC3)[nH]c2c1
Cmax (human patients, fasted, plasma; oral, 6 mg once daily, cycle 1 day 15, added: enzalutamide once daily): 174 ng/mL

O=C(O)CCCCCCCCCCCCCCC(=O)O
Cmax (human, plasma; oral, dose not given; relative to: untreated): 306 ± 31 nM

Fc1ccc([C@@H]2CCNC[C@H]2COc2ccc3c(c2)OCO3)cc1
Cmax (human, CYP2D6 intermediate metabolizers; oral, 20 mg, steady state, geometric mean): 38 ng/mL

Cn1cncc1[C@@](N)(c1ccc(Cl)cc1)c1ccc2c(c1)c(-c1cccc(Cl)c1)cc(=O)n2C
Cmax (healthy human, plasma; oral, 50 mg): 104 ng/mL

O=C(O)CCC(=O)O.[2H]C([2H])([2H])Oc1cc(C)c2[nH]ccc2c1CN1CC[C@@H](C2CC2)C[C@H]1c1ccc(C(=O)O)cc1
Cmax (healthy humans, fasted, plasma; oral, 200 mg, single dose): 3140 ng/mL

COC(=O)N[C@@H](C)CNc1nccc(-c2cn(C(C)C)nc2-c2cc(Cl)cc(NS(C)(=O)=O)c2F)n1
Cmax (human patients, plasma; oral, 450 mg twice daily, day 14, steady state, geometric mean, added: binimetinib 45 mg once daily): 3240 ng/mL

N[C@](CO)(CCc1ccc(Sc2cccc(OCc3ccccc3)c2)cc1Cl)COP(=O)(O)O
Cmax (human fasted, whole blood; 3 mg MOC, MOC given alone): 0.996 ng/mL

[H]/N=C(/N)c1ccc(NCc2nc3cc(C(=O)N(CCC(=O)O)c4ccccn4)ccc3n2C)cc1
Cmax (healthy human subjects, plasma, total; oral, 150 mg, dabigatran etexilate alone, geometric mean): 123 ng/mL

CN1CC[C@@H](c2c(O)cc(O)c3c(=O)cc(-c4ccc(C(F)(F)F)cc4Cl)oc23)[C@@H]1CO
Cmax (noncompartmental; human patients, plasma; oral, 100 mg continuous, cycle 1, after day 1): 153 ng/mL

C[C@H]1CN(C2COC2)CCN1c1ccc(Nc2cc(-c3ccnc(N4CCn5c(cc6c5CC(C)(C)C6)C4=O)c3CO)cn(C)c2=O)nc1
Cmax (human, plasma; oral, 200 mg twice daily): 1200 nM

Cc1nc(Nc2ncc(C(=O)Nc3c(C)cccc3Cl)s2)cc(N2CCN(CCO)CC2)n1
Cmax (human, plasma; oral, 100 mg): 13.6 ng/mL

CCN(CC)CCNC(=O)c1c(C)[nH]c(/C=C2\C(=O)Nc3ccc(F)cc32)c1C
Cmax (human, normal hepatic function (NCI), plasma; single dose, geometric mean, total drug): 21.8 ng/mL

Some of these lines once more:
CCN(CC)CCNC(=O)c1c(C)[nH]c(/C=C2\C(=O)Nc3ccc(F)cc32)c1C
Cmax (human, normal hepatic function (NCI), plasma; single dose, geometric mean, total drug): 21.8 ng/mL

Cc1noc(C)c1-c1cc(C(O)(c2ccccn2)c2ccccn2)c2nc(C3CC3)[nH]c2c1
Cmax (human patients, fasted, plasma; oral, 6 mg once daily, cycle 1 day 15, added: enzalutamide once daily): 174 ng/mL
